Assay results collected from several papers.
A part holds a random share of what one study measured.

Study 1 — technique: RNA Bind-n-Seq; form: RNA; sample: in vitro; tested at: 365 nM; baseline: no-protein control; reading: higher = stronger binding; measurement: RBNS enrichment (R)
Target: RNA binding protein fox-1 homolog 2, RRM domain, GST-SBP tag (RBFOX2, Homo sapiens, UniProt O43251-10, residues 100-194)
Notes: natural RNA segment, single round, ends assumed
All sequences stand within: GGGAGUUCUACAGUCCGACGAUC … UGGAAUUCUCGGGUGCCAA
Construct (chain): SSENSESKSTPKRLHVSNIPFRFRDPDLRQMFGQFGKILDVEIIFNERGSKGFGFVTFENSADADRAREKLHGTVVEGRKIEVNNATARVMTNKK
CUGCUACUUUGGGGAGUUGAUGGCCAGGAAAGAAGCCAGCACAGGGUUAAAGUAACUCCUGGCAUUGCCCACCAGGGGGCUGGUGCACCUGCUGACCUCAGGGUCACAGU: 0.739
ACUGUGACAUCAGCCUUUGAUAGUAGGACAUUAUUUCUUGAUUUCCUUAUUAAAAGAAAAAAAUGGGUGCUAGUGGUAAUUUGCUUUGUGGCUUAGCAACCUAGUUUGUG: 0.998
AAUGCCUUCUCCCUGACCUUGACACUUCCCCCUUUAGCUAUAAAAGCACUUACCAGCCGAACGUGGAACAGUAUCACAAAAGAUUCCAUCUCCCAACGAUUUCAGAACUC: 0.551
CUUAACCAAAAGAUACAGUAACAUAGCCAUGUACUGUGGUUGGGACAGAUACAGUCUCCUUGGCUUAUAGGACUUCCUAGCUACACUUUCCUUAGCGCAUUAAUGUGAUG: 0.401
UUGUUUAUUUUUGCUUGUUAUGUUAAGCAAAAAUCCUGCAAUGAAAGGUACUAUAUUUGCCAGACUCUAGACAUAAGAUAUUGUACAUAAAGAGAAUUUUUUUUGCCUUU: 1.78
UAAUCAGUGGUGCUUUUGUGCCUAGGUUUUAUGUGAUUUUAAUGAAAUAUGGAUAGUUGUGGCCACCUGCUGACUAUUUGUGGUUUAAAAUAAAAAGGUUUUCUUGUCUG: 0.27
AUUUAUUCCCUAAUGUACCUGAACACUAGUACCAUAGAACUGAACCACCAUCUGUAUCAGCGCAUGGGGAGUGUGCAUUCUGAGGUCUAACCCGGGGUGCCAGGAACACA: 0.542
AAACAGCGAGAAUGAAGAGCUACAUUCUUGCAGACGAGCUGUAGGUCGUACACGAAUGUCUAAAGAGACAUUCAAAACUCGAAUAGGGUGCAGAGUAAUUUCUUACUGUG: 0.28
AAUUACGGAUGUAAUUCUGUGUAUCUUGCUGUGACUCCGAAGACUGUAGUACUGGUGUCAUGGAAAUAUAUGUUAUUUCCACAGUCAUUUCAUUAAAGAUGAAAACUUUA: 0.355
UUGAUCAGUUUUAUGCCGCAUUGUUCGUGGCAGUAGACCACAUCUGUUCGUCUGCACAGCUGUGAGGCGAUGCUGUUCCAUCUGCACAUGAAGGACCCCCAUACAGCCUG: 0.391
UACUUCUUGCUGAUCAUGCGUUGUGGGGGUGUGGGGGGACCCAUGCAGAGGAGGUUCUCUUCAUAAGGGGGACUCACAGAAGGACCUUCCAGUGAAUGUUUGACCUAGGG: 0.447
GCUGUAAACCUGUUUUUUAAAACUAUUUUAGAAACCUGAGACUUGCCGUCUGGCAUUUUAGUUUAAUACAAACUAAUGAUUGCAUUUGAAAGAGAUUCUUGACCUUAUUU: 1.01

Study 2 — technique: protein-binding microarray; form: double-stranded DNA, one strand shown; sample: in vitro; tested at: 2200 nM top; notes: 60-bp whole probe; added: salmon DNA 0.4 mg/ml; baseline: random background probes; reading: higher = stronger binding; measurement: fitted relative affinity; all sequences stand within: GCCTAGCAC … GTCTTGATTCGCTTGACGCTGCTG
Target: Interferon regulatory factor 7, full length, phosphomimetic (IRF7, Homo sapiens, UniProt Q92985, residues 1-503, S471D/S472D/S475D/S476D/S477D/S483D/S484D/S487D)
UniProt Q92985, sequence (whole entry, unmodified, looked up): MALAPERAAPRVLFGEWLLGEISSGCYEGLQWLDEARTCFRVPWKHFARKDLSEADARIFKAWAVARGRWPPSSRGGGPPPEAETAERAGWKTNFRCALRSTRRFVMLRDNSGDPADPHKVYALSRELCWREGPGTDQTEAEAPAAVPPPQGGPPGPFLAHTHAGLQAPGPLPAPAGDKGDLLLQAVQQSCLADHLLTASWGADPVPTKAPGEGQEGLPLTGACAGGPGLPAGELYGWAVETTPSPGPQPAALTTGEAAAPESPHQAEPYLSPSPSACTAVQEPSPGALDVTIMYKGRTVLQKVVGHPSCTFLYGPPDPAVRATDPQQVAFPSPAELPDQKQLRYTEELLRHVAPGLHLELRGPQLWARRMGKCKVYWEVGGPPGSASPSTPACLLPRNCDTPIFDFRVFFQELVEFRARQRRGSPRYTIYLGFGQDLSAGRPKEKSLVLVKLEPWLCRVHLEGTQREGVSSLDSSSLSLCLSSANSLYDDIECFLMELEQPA
GACGGTATCGGACTCGGGACGTGCTAG: -0.18 z-score
GACGGTTTCGGTTGCGGGACGTGCTAG: 7.73 z-score
GACGATTTCAGTTCCCAGACGTGCTAG: 2.5 z-score
TTAGGTATCCTACTGTTTTAGTGCTAG: 0.665 z-score
TTAGGTCTCGGACTGGGTAAGTGCTAG: -0.296 z-score
TTAGGACTGGACTTTCGGTTAGTGCTA: 4.89 z-score
TTAGAACTGAGTTTCGAATAGTGCTAG: 0.704 z-score
TTAGATCTCGGGACTGGATTAGTGCTA: -0.317 z-score
TTAAAACTGGGGACTGGATTAGTGCTA: -0.486 z-score
TTAGGACTGGGGTACCGGTTAGTGCTA: -0.889 z-score
AACGGTTTCCTTCTCCTGACGTGCTAG: 2.92 z-score
TTAGAACGGAGTATCGATTAGTGCTAG: -0.364 z-score
TTAGGTTTCCTACTGCTATAGTGCTAG: 0.933 z-score
GACGGTATCAGTATCGAGACGTGCTAG: 0.242 z-score
TGTGCTTTCCTGATGACCCTGTGCTAG: 2.09 z-score
GACGGTTTCGGACTGGGAACGTGCTAG: 3.6 z-score
TTCGGACTGGGTATCGGTTAGTGCTAG: 0.0678 z-score
TTAGAACTGGGGACTGGCTTAGTGCTA: -0.687 z-score

Study 3 — technique: protein binding microarray; form: double-stranded DNA, one strand shown; sample: in vitro; tested at: not given; baseline: not given; reading: higher = stronger binding; measurement: E-score
Target: Histone acetyltransferase KAT6A, both winged helices, GST fusion (KAT6A, Homo sapiens, UniProt Q92794, residues 1-181)
Notes: 8-mer, flanks averaged, mean of 2 arrays, mostly near background
Construct (chain): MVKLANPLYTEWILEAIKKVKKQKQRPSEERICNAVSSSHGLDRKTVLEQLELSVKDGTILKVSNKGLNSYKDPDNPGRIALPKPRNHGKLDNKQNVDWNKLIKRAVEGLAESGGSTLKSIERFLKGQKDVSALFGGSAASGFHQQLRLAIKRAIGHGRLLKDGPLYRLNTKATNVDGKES
AATCGGTC: 0.126
ACGCCGAG: 0.196
AATTAGTA: -0.0826
TAGACAGA: -0.189
AAGCCCTA: -0.13
AAGTCTGG: -0.271
ATCATAGG: 0.0114
CAGCTGCC: 0.0165
ATCTAAAC: -0.0248
AGACTTCG: -0.208
GAGAAGGA: -0.157
AAAATGTA: -0.0866
CGCAGTGC: 0.207
ACGAGCAC: -0.134
CCCAAGAA: -0.201
GCTAGTCC: 0.0236
GCCGACAA: 0.188
GAATGGTC: 0.0576
AAAGCTAG: -0.282
GGTGCTCA: -0.101
CGCGTGGA: 0.232
ATGAAAAG: -0.0854
AACGCATT: 0.205

Study 4 — technique: RNA Bind-n-Seq; form: RNA; sample: in vitro; tested at: not given; notes: RNA with constant flanks, ends assumed; baseline: input RNA pool; reading: higher = stronger binding; measurement: bound/input enrichment
Target: RING finger protein unkempt homolog, zinc fingers 1-6, GST-SBP tag (UNK, Homo sapiens, UniProt Q9C0B0, residues 30-357)
All sequences stand within: GGGAGUUCUACAGUCCGACGAUC … CAACAGAGGAUUGAGCAUCA
Residues (chain): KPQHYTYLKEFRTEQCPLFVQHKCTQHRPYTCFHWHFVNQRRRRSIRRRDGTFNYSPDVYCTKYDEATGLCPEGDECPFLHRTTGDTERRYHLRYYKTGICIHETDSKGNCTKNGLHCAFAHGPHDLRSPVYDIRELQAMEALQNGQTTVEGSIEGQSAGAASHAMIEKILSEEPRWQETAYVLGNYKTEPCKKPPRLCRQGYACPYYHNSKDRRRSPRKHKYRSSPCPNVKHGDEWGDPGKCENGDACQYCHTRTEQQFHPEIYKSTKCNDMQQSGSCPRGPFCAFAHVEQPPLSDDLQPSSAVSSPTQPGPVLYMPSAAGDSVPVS
ACCUCUUUAGUGUGUUCUGUGACGCUGCUCAUUACGAUUCUGUGUUCUACUUUGAUCCUUUCCGCUGUUUUCAAAUAUGGCCACUUUUCCCUGUAAGUUUUGUACAGCUAAGUGUUUUCU: 0.238 ratio
UGUGUGUGUGUGUGUGUGUGUGUGUGUGUGUGUGUGUGAGAGAGAGAGAGAGAGAGAUUUGUUUGCCGCCCGUGAAGGCUCCAGCAUGCUGGUCUGACUACAAAGGCCACCUCCCUUACA: 0.36 ratio
CAGAAGUGGAUUGAGCAAGUAACUGGCAGAAGUUUUGGUGAUAAAGAUUUUCGGACAGGUUCCGAAAAUGGAAUCCUCCUCUGCGAGUUGCUGAAUGCUAUAAAGCCAGGACUUGUUAAA: 0.0968 ratio
CCGAAAGUAGUGAAUGAAAUAAACAUUGAAGAUUUGUGUCUUACUAAAGCAGCUUAUUGCCGGUGUUGGCGUUCUAAAACGUUUCCUGCCUGCGAUGGUUCACAUAAUAAACACAAUGAA: 4.96 ratio
CCGCCUCGGGUCGUGGAGCCAGGAGCGACGUCACCGCCAUGGCAGGCAUCAAAGCUUUGAUCCGUUUGUCCUUUGGAGGAGCAAUCGGACUGAUGUUUUUGAUGCUUGGAUGUGCCCUUC: 0.0587 ratio
CAUGGAAAUAUUAUCUACAUCCACAUAAGAGAUAAAACCUGGGAUGUACAUGAAUAUUUGAACCGUCUUUUUGAAGAAUUAAAAUCUUGGAGAGAUGUUUAUUGGCGUUUGUGGGGCACA: 0.425 ratio
AUACAUGAUCUAGCAAGCCAAGCUGCCACCAUUUGCAGUCCAGAUUUUUUACUAGAUGCUUCCGAACUAUGUAAACAUACUUUAAUGGCUGUAGAGCUUUCCAGACAAUGCCAAAUGGAU: 0.924 ratio
GCUUUGACUUCAAAAAAAGCAAGAUUUGAUCCAUAUGGAAAGAAUAAGUUCUCCACUUGCCGAAUUUGUAAAAGUUCUGUGCACCAACCAGGUUCUCAUUACUGCCAGGGCUGUGCCUAC: 0.197 ratio
CUUCCGUUUAUUGUUUCACAUAGGUUGUCUAAUACCUUGAGCUUAGAUAUUCAUGAAAAUCACCGCCUUGCACUUCUAGGAAAGAAGAAAUCAAGCAGCUUAACAUUACCACCCAAAUAC: 0.622 ratio
AUGUAUUCAAUAGAUCUCUACAACUAUGCCCCUUCUAGCAGGGAUACCUAUAACUUUGUGUCCGCACCAUGGAGAAUACAAUGUUUUUGCAACAUAUGAGAGAAGAUAGUUCUAGCCAUG: 0.434 ratio
UCUCUACCUCACCUCAGUGGUCAGGGCUGCCUCCACCCAGCAUUGGAAGAGGUCAUUGUGAACCGAACCGUUGAUGUGCUCAGCUGUUCACUGAACCCCUGAGCAUGAGUUGAACAUAGA: 0.179 ratio

Study 5 — technique: RNAcompete; form: RNA; sample: in vitro; tested at: 20 nM; notes: 7-mer, probes averaged, single round; baseline: mean of 7-mers; reading: higher = stronger binding; measurement: 7-mer Z-score
Target: PABPC1L2, full length, GST fusion (mouse, UniProt A0ABA7IW68)
Construct (chain): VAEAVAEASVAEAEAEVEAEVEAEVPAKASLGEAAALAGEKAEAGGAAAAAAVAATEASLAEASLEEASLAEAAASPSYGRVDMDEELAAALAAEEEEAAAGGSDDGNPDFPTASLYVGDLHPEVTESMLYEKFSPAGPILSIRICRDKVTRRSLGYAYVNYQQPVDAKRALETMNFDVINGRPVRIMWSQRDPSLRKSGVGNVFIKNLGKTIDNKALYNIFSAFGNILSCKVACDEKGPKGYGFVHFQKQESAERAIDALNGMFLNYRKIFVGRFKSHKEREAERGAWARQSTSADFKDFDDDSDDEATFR
CUGCUGU: -0.311
GCCUACU: -0.318
AGACUCU: -0.275
UCUCUGG: -0.224
ACCUAAG: -0.148
AGCUCCU: -0.296
CACUUAG: -0.151
AUUCCCC: -0.499
CAUAAAC: 2.19
UGACGAG: 0.00436
AGUGCGU: -0.26
GUGCAGC: -0.132
CGAUGGG: 0.119
AUUCAUU: -0.224
AACCGCC: -0.229
GGGCAGG: 0.494
CGGGAUG: 0.12
AAACGGU: 0.604
CCAGGUU: -0.32
UUUGAUU: -0.139
CAAGGAG: 0.254
AGCCGCC: -0.36
GAAGUUA: -0.0627
GCUCCAG: -0.262
AGAGUGG: -0.0156

For quick reference, copied from above (study 3):
ATCATAGG: 0.0114
CAGCTGCC: 0.0165
ATCTAAAC: -0.0248
AGACTTCG: -0.208
GAGAAGGA: -0.157
AAAATGTA: -0.0866
CGCAGTGC: 0.207
ACGAGCAC: -0.134
CCCAAGAA: -0.201
GCTAGTCC: 0.0236
GCCGACAA: 0.188
